# Published values gathered from unrelated publications.
# Every numbered part comes from another study and shows a few of its results, in no order. “And” joins repeats or separate records; there may be more than shown.

# Set 1
# Compound: CC(C)(C)c1cnc(CSc2cnc(NC(=O)C3CCN(CCCCCCCCSc4cccc5c4CN(C4CCC(=O)NC4=O)C5=O)CC3)s2)o1 (stereo not drawn)
cell line,read-out,method,concentration,time,baseline,viability
HH,,CCK-8,250 nM,,,0%
HuT78,,trypan blue exclusion,10 nM,48 h,untreated control,95.9% and 95.2%
HuT78,cell growth or viability,trypan blue,10 nM,48 h,,98.3%
HuT78,,trypan blue exclusion,500 nM,48 h,untreated control,20.1% and 17.7%
HuT78,,trypan blue exclusion,100 nM,48 h,untreated control,69% and 60.5%
HuT78,,trypan blue exclusion,1 nM,48 h,untreated control,100% and 98.3%
HH,,CCK-8,500 nM,,,0%

# Set 2
# Cell line: A-375
# Concentration: 100 µM
# Time: 36 h
SMILES,viability [%]
Cc1cnc(NC(=O)C2=C(O)c3ccccc3S(=O)(=O)N2C)s1,87.6
O=C(Nc1ccc([N+](=O)[O-])cc1Cl)c1cc(Cl)ccc1O,12.5
C[C@@H]1O[C@@H]1P(=O)(O)O,89.6
CCc1nn(CCCN2CCN(c3cccc(Cl)c3)CC2)c(=O)n1CCOc1ccccc1,1.26
COc1cc(C[C@H]2C(=O)OC[C@@H]2Cc2ccc(OC)c(OC)c2)ccc1O,75.3
OC[C@@H](O)[C@@H](O)[C@H](O)[C@H](O)CO,107
C#C[C@]1(O)CC[C@H]2[C@@H]3CCC4=CC(=O)CC[C@@H]4[C@H]3CC[C@@]21C,90.4
O=C(O)Cc1ccc(-c2ccccc2)cc1,94.1
CN(C)CCOC(C)(c1ccccc1)c1ccccn1 (stereo not drawn),6.72
O=c1c(-c2ccc(O[C@@H]3O[C@H](CO)[C@@H](O)[C@H](O)[C@H]3O)cc2)coc2cc(O)cc(O)c12,89.7
Cc1ccc(C(=O)c2cc(O)c(O)c([N+](=O)[O-])c2)cc1,30.1

# Set 3
# Target: Macrophage colony-stimulating factor 1 receptor (CSF1R, Homo sapiens, UniProt P07333)
# UniProt P07333, sequence (whole entry, looked up): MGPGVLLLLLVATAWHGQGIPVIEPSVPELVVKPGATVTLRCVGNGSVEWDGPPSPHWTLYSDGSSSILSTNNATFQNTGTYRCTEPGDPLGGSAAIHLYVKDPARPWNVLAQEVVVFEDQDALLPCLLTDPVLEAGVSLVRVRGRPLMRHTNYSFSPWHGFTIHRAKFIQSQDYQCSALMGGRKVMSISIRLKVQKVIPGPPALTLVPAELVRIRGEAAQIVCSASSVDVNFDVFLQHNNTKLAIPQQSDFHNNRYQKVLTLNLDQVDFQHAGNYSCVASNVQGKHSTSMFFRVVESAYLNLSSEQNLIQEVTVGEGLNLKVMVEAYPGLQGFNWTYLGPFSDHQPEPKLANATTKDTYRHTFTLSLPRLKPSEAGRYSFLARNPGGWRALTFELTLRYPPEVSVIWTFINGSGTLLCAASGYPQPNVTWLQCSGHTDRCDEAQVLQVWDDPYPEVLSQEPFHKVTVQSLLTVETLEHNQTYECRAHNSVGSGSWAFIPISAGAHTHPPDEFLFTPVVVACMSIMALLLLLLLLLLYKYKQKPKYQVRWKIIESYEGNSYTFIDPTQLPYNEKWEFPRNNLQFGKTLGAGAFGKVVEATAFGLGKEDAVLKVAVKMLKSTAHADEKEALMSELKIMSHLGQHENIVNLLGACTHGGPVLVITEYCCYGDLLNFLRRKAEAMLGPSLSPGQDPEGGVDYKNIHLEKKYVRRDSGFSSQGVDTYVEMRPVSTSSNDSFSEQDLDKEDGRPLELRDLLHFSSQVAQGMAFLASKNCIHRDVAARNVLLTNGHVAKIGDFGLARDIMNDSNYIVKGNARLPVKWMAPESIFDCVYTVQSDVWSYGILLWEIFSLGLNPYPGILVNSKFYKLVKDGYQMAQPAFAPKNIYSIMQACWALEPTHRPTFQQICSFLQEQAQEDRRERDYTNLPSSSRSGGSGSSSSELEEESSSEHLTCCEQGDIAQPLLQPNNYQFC
# Read-out: enzyme activity
# Mode: inhibitor
# Concentration: 0.5 µM
# Baseline: control
SMILES,remaining activity
CCc1[nH]c(-c2ccc(OC)cc2)nc1-c1ccncc1,100%
Oc1ccc(Nc2nc(-c3ccc(Cl)cc3)cs2)cc1,104%
Cc1cncc2cccc(S(=O)(=O)N3CCCN(C(=O)CN)C[C@@H]3C)c12,95.6%
Cc1ccc(NC2=CC(=O)c3sc(C)nc3C2=O)cc1,89.9%
CSc1nc(-c2ccnc(N[C@@H](C)c3ccccc3)c2)c(-c2ccc(F)cc2)[nH]1 (racemic),104%
N#CC(=C(N)Sc1ccc(N)cc1)c1ccccc1C(F)(F)F,101%
COc1ccc(S(=O)(=O)N(CCO)c2ccccc2CN(C)CC=Cc2ccc(Cl)cc2)cc1,103%
Fc1ccc(-c2nc3n(c2-c2ccncc2)CCS3)cc1,103%
Nc1nc(Nc2ccc(S(N)(=O)=O)cc2)nn1C(=O)c1c(F)cccc1F,49.2%
O=C1NC(=O)C(c2c[nH]c3ccccc23)=C1c1c[nH]c2ccccc12,93.7%
Nc1ncnc2c1cnn2-c1ccccc1,105%
CC(C)(C)n1nc(Cc2cccc3ccccc23)c2c(N)ncnc21,99.9%
NC(=O)c1ccc(N(C(N)=O)c2c(F)cccc2F)nc1-c1ccc(F)cc1F,109%
CC(=O)c1ccc(N2CCOCC2)cc1O,100%
O=C1Cc2c([nH]c3ccc([N+](=O)[O-])cc23)-c2ccccc2N1,51%
CC[n+]1c(/C=C/N(C)c2ccccc2)n(-c2ccccc2)c2ccc(-c3nc4ccccc4s3)cc21,108%
Cc1cc(Nc2nc(-c3ccccc3)nc3ccccc23)n[nH]1,33.1%
Nc1nccc(-c2c(-c3ccc(F)cc3)ncn2C2CCNCC2)n1,100%
O=S(=O)(NCCNC/C=C/c1ccc(Br)cc1)c1cccc2cnccc12,97.7%
CCCC(=O)Oc1ccc2[nH]c(C(=O)c3cc4ccccc4[nH]3)cc2c1,103%
CC#CC(=O)Nc1cc2c(Nc3ccc(F)c(Cl)c3)ncnc2cn1,101%
COc1cc(Nc2c(C#N)cnc3cc(OCCCN4CCN(C)CC4)c(OC)cc23)c(Cl)cc1Cl,43.1%

# Set 4
# Host: mouse
# Sample: microsomes or S9
# Concentration: 2 µM
# Time: 0.5 h
Structure (SMILES),remaining compound [%]
CC(C)S(=O)(=O)c1ccccc1Nc1c(Cl)cnc(Cl)c1Cl,17.5
Cn1cc(NC(=O)N2CCCC(S(=O)(=O)N3CCc4ccccc43)C2)cn1 (stereo not drawn),19.9
CN(C(=O)c1cnc(N)nc1-c1ccccc1)C1CCCc2ccccc21 (stereo not drawn),5.6
COc1ccc([C@H](O)[C@H]2OCCN(Cc3ccccc3)C2=O)cc1,76
CCOC(=O)C(OC(C)(C)C)c1c(C)nc2c(Br)c(C)nn2c1-c1ccc(Cl)cc1 (stereo not drawn),16.9
CCc1nc(NCCc2ccncc2)c2c3c(sc2n1)CCCC3,0.738
CC(C)n1cc(CNS(=O)(=O)c2cc(F)cc(Cl)c2)nn1,2.42
CC1(C)CC(NS(=O)(=O)c2ccccc2F)CC(C)(C)N1,92.4
CC1(C)C=C(N(Cc2ncc[nH]2)c2ccc(Cl)cc2Cl)c2ncccc2O1,0.00562
CC(C)CN/C(=N/S(=O)(=O)c1ccccc1)c1ccccc1,5.18
O=C(Nc1ccccc1-c1cn2ccccc2n1)c1ccc(Cn2ccnc2)cc1,0
OC(Cn1c(Cc2ccccc2)nc2ccccc21)Cn1c2ccccc2c2ccccc21 (stereo not drawn),11.7
O=C1NN=C(c2ccc(F)cc2)Cn2c1cc1ccccc12,6.4
N#Cc1cc(NC(CCO)C2CCOCC2)nc2ccc(Cl)cc12 (stereo not drawn),8.06
